Measurements from different studies.
Parts stem from different laboratories: compare values within a part only. Several values in a cell are separate wells, animals, samples, runs or records.
UniProt P11362, sequence (whole entry, looked up): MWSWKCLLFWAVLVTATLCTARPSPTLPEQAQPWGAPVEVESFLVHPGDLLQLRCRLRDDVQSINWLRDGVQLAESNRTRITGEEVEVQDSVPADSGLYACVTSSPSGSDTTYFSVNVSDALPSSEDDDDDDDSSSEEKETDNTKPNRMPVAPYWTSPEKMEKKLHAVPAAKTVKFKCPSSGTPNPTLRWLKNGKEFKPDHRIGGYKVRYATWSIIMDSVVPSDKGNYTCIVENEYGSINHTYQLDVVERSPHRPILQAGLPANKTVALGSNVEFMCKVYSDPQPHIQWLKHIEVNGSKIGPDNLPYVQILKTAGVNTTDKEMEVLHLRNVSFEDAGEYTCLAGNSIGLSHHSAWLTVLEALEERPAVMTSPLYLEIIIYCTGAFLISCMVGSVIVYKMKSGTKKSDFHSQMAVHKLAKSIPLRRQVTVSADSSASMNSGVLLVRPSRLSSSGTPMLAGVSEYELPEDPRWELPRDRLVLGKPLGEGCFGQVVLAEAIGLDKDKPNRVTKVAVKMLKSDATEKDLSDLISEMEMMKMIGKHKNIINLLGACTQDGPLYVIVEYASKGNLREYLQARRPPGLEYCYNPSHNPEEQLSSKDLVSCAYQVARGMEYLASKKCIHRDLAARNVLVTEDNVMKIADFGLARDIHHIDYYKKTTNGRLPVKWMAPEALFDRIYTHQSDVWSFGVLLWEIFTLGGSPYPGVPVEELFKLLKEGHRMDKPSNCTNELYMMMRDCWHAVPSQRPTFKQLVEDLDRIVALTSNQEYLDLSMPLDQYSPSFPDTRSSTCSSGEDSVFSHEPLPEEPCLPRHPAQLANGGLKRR
UniProt P25100, sequence (whole entry, looked up): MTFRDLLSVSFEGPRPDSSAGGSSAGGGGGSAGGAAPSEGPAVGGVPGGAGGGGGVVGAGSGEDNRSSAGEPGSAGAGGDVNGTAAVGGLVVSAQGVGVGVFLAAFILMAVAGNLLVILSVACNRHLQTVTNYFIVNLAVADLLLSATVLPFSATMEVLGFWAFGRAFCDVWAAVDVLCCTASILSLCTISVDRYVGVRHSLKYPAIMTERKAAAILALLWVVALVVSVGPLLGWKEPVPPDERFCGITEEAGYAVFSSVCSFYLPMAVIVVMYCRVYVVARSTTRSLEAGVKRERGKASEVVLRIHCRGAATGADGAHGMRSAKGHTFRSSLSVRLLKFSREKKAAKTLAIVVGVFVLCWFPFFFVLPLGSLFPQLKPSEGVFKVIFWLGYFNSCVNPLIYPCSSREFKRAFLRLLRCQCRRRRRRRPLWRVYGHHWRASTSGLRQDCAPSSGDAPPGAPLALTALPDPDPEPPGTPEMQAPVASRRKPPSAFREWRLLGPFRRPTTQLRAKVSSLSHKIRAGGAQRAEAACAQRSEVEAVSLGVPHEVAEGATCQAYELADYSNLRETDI
UniProt Q13470, sequence (whole entry, looked up): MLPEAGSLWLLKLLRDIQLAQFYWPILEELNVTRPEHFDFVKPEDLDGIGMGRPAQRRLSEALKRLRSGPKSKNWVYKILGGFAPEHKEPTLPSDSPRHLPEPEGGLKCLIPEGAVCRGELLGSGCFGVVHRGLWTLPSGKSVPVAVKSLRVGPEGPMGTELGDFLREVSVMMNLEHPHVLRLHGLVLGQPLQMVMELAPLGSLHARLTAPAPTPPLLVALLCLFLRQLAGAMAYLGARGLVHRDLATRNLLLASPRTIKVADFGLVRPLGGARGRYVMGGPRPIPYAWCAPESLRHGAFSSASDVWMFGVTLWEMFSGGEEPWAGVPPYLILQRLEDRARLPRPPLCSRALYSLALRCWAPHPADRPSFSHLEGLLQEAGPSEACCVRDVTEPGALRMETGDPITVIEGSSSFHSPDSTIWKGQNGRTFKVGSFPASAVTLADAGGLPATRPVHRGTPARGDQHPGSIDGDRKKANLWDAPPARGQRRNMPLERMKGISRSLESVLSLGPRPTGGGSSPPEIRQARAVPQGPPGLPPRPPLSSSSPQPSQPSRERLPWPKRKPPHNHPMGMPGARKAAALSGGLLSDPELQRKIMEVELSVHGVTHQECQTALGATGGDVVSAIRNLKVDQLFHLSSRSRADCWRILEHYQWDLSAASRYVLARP
UniProt P08912, sequence (whole entry, looked up): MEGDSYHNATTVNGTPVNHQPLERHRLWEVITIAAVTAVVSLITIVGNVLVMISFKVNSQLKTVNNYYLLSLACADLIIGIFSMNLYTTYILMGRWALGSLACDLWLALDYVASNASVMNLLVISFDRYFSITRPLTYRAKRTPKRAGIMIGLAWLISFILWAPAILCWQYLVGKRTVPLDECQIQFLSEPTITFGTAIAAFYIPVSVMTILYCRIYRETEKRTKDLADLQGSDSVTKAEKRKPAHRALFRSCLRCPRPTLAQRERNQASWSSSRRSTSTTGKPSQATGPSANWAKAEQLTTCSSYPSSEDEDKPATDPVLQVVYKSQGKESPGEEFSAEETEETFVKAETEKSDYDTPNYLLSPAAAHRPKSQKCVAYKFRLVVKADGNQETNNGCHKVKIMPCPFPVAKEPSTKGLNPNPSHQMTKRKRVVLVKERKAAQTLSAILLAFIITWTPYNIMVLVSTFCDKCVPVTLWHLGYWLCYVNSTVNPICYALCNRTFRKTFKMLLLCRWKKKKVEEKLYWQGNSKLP
UniProt Q96PY6, sequence (whole entry, looked up): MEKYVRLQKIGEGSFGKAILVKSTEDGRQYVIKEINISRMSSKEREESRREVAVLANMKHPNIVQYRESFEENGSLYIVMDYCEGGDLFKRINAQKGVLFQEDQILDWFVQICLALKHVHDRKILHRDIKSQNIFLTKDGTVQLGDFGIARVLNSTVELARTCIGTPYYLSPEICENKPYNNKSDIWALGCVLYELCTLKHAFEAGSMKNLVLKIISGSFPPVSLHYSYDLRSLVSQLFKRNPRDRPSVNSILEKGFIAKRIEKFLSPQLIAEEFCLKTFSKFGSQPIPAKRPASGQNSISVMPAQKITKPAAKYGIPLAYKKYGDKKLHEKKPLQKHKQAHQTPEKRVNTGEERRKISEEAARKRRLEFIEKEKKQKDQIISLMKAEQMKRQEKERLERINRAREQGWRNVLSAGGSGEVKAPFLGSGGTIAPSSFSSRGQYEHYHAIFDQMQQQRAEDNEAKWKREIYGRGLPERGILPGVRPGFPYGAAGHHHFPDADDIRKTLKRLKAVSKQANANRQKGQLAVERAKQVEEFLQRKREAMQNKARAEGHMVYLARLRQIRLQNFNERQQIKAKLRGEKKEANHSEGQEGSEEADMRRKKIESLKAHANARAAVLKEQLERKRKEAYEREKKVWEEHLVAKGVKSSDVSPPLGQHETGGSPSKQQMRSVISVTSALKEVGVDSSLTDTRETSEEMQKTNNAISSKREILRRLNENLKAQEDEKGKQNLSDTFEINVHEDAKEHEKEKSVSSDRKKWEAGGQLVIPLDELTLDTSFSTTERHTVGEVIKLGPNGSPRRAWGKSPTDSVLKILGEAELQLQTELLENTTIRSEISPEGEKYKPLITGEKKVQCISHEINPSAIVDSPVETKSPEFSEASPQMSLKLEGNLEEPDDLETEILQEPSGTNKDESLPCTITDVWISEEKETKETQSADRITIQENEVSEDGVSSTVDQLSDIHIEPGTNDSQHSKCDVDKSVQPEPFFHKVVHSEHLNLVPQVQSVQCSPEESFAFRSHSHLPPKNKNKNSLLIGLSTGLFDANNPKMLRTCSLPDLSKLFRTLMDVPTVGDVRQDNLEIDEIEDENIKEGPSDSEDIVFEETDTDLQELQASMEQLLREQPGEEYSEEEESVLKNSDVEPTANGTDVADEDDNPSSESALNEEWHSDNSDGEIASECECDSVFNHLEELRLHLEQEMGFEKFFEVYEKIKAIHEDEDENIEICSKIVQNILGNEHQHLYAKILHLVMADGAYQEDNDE
UniProt P08173, sequence (whole entry, looked up): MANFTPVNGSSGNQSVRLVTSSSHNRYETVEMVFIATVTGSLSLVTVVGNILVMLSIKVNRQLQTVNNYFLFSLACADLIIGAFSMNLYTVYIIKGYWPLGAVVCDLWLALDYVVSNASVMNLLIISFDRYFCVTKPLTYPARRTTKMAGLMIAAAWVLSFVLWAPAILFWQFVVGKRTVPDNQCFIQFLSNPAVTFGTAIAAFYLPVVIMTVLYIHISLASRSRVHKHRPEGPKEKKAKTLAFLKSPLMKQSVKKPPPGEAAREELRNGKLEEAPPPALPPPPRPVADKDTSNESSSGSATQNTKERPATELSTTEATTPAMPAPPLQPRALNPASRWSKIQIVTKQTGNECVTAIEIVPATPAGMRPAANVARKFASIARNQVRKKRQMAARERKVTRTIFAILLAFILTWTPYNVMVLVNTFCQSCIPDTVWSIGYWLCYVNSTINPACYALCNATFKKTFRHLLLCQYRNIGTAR
UniProt P21917, sequence (whole entry, looked up): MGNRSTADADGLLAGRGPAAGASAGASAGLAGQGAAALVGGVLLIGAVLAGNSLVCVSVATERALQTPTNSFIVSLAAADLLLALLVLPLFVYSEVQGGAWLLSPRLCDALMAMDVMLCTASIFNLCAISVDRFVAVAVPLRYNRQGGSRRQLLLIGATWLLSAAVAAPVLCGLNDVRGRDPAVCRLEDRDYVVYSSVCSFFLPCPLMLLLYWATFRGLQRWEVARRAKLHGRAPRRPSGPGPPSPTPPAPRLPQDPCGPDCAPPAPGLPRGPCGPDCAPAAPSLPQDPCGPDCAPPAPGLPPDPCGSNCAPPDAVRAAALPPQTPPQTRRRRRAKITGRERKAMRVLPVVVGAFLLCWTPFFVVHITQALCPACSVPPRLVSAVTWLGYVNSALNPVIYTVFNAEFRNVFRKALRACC
UniProt Q99720, sequence (whole entry, looked up): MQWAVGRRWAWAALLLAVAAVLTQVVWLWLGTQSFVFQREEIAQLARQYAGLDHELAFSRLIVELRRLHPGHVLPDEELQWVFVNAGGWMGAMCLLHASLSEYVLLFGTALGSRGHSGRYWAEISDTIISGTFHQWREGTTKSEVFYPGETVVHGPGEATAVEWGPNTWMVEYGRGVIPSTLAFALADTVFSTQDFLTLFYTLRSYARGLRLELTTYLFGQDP

Set 1
SMILES: O=C(Nc1cnn(-c2csc(C(=O)NC3COC3)c2)c1)Nc1ccccc1Cl
Concentration: 5 µM
target	effect on	action	technique	relative to	remaining activity [%]
KDR (Homo sapiens, UniProt P35968)	enzyme activity	–	–	untreated control	94.6
TTBK1 (Homo sapiens, UniProt Q5TCY1)	enzyme activity	inhibitor	–	–	97.2
TNK1 (Homo sapiens, UniProt Q13470)	enzyme activity	–	–	untreated control	98.3
CSNK1E (Homo sapiens, UniProt P49674)	enzyme activity	–	–	untreated control	89
NEK1 (Homo sapiens, UniProt Q96PY6)	enzyme activity	–	–	untreated control	115
Cyclin-dependent kinase 16, with cyclin Y (CDK16, Homo sapiens, UniProt Q00536)	kinase activity	–	kinase panel profiling	–	94.8
FGFR1 (Homo sapiens, UniProt P11362)	enzyme activity	–	–	untreated control	98.5
KIT (Homo sapiens, UniProt P10721)	enzyme activity	–	–	untreated control	88.3
FLT1 (Homo sapiens, UniProt P17948)	enzyme activity	–	–	untreated control	96.8
MYLK3 (Homo sapiens, UniProt Q32MK0)	enzyme activity	–	–	untreated control	90.5
MAP3K7 (Homo sapiens, UniProt O43318)	enzyme activity	–	–	untreated control	97.8

Set 2
Cell line: mouse MPNST tumor cells
Technique: high-content immunofluorescence imaging
Refers to: nuclear SOX9
Concentration: 10 µM
Time: 12 h
Setting: mean of 2 replicates
Relative to: DMSO control
Direction: higher = more nuclear SOX9
SMILES	nuclear SOX9 intensity
Cc1nc2sccn2c(=O)c1CCN1CCC(=C(c2ccc(F)cc2)c2ccc(F)cc2)CC1	130 % of DMSO
CC(C)Cn1c(=O)n(C)c(=O)c2[nH]cnc21	102 % of DMSO
COc1cc([C@@H]2c3cc4c(cc3[C@@H](O[C@@H]3O[C@@H]5CO[C@@H](C)O[C@H]5[C@H](O)[C@H]3O)[C@H]3COC(=O)[C@H]23)OCO4)cc(OC)c1O	120 % of DMSO and 141 % of DMSO
CNC(=O)c1cc(Oc2ccc(NC(=O)Nc3ccc(Cl)c(C(F)(F)F)c3)cc2)ccn1	115 % of DMSO
O=C1CCCC(=O)C1C(=O)c1ccc(C(F)(F)F)cc1[N+](=O)[O-]	88.4 % of DMSO
N#Cc1c[nH]c2c(C(=O)N3CCN(CCc4ccc(F)cc4)CC3)cccc12	99.3 % of DMSO
O=C(Nc1cnc(Cl)nc1)c1ccc(F)c(F)c1	102 % of DMSO
O=C(O)CCC=CCC1COC(c2ccccc2Cl)OC1c1ccccc1O (stereo not shown)	95.2 % of DMSO
CCc1cccc(N(C)C(=N)Nc2cccc3ccccc23)c1	162 % of DMSO
CCOc1c2c(c(OCC)c3ccccc13)C(=O)N(c1ccc(CC(=O)NS(=O)(=O)c3ccccc3)cc1)C2	98.5 % of DMSO

Set 3
SMILES: O=C(NNS(=O)(=O)c1ccccc1)c1cc(-c2ccnnc2)ccc1F
Effect on: cell-free assay
Concentration: 10 µM
target	inhibition
ADRB1 (Homo sapiens, UniProt P08588)	11.2%
DRD1 (Homo sapiens, UniProt P21728)	8.58%
DRD2 (Homo sapiens, UniProt P14416)	14.7%
DRD3 (Homo sapiens, UniProt P35462)	-8.61%
ADRA1A (Homo sapiens, UniProt P35348)	18.6%
ADRB2 (Homo sapiens, UniProt P07550)	10.4%
HRH4 (Homo sapiens, UniProt Q9H3N8)	-19.8%
HRH1 (Homo sapiens, UniProt P35367)	-2.04%
HTR6 (Homo sapiens, UniProt P50406)	2.65%
CHRM5 (Homo sapiens, UniProt P08912)	-10.6%
CHRM4 (Homo sapiens, UniProt P08173)	-11.8%
DRD4 (Homo sapiens, UniProt P21917)	9.83%
ADRB3 (Homo sapiens, UniProt P13945)	-12%
TMEM97 (Homo sapiens, UniProt Q5BJF2)	40.1%
SIGMAR1 (Homo sapiens, UniProt Q99720)	19.1%
HRH3 (Homo sapiens, UniProt Q9Y5N1)	15.5%
HRH2 (Homo sapiens, UniProt P25021)	-5.93%
ADRA2B (Homo sapiens, UniProt P18089)	3.07%
HTR7 (Homo sapiens, UniProt P34969)	-1.87%
CHRM2 (Homo sapiens, UniProt P08172)	-5.57%
ADRA1D (Homo sapiens, UniProt P25100)	17.4%

Set 4
Host: mouse
Sample: microsomes or S9
Concentration: 2 µM
Time: 0.5 h
Structure (SMILES)	remaining compound
CSc1c(C(C)=O)c(=O)nc2scc(C)n12	0.253%
CN1CCC(Nc2ccn(-c3ncccc3C(F)(F)F)n2)CC1	74.2%
c1ccc2c(c1)CC(N1CCCCC1)c1ccccc1N2 (stereo not shown)	50%
CN1Cc2cc(NCc3c(Cl)cnn3C)ccc2NC1=O	65.4%
C[C@@H](C(=O)NOC(C)(C)C)N1C(=O)Nc2cc(Cl)cc(Cl)c2S1(=O)=O	61.2%
CCc1nn2c(nnc3c(=O)n(NC(=O)c4ccccc4C)ccc32)c1-c1ccccc1	84.3%
O=C1CCc2cc3oc(-c4ccc(F)cc4)nc3cc21	16.7%
COc1cccc(-c2nc3cnccn3c2NCCC(=O)Nc2ccc3c(c2)OCCO3)c1	3.02%
O=C(C1CCOCC1)N1CCC(Oc2nccnc2N2CCOCC2)C1 (stereo not shown)	0.215%
O=C(C1CCN(C2=NS(=O)(=O)c3ccccc32)CC1)N1CCCc2ccccc21	0.757%
